Published values collected from several papers.
Parts stem from different laboratories: compare values within a part only. Substitutions count along the parent as printed.

Block 1
Target: Sal-like protein 4, full length isoform B (SALL4, Homo sapiens, UniProt Q9UJQ4-2, residues 1-616)
Method: universal PBM
Form: double-stranded DNA, one strand shown
Matrix: in vitro
Concentration: not given
Notes: 8-mer, flanks averaged, mean of replicates
Reading: higher = stronger binding
Strand	E-score
GATGTTGC	-0.0197
CGTCACGC	-0.132
ACATAACA	0.294
CCCATTAA	0.129
ATCGTATG	0.213
CGCGAATC	-0.159
ATCTCCGA	-0.0254
CGCTGGTC	-0.271
AGCGTACG	-0.0305
CAGGAATG	-0.0241
CCAAGCCG	-0.329
CTAACGTA	0.241
CTTTTTGA	0.0956
GGAATCCC	-0.285
CGGACGTA	-0.103
GAGTGGGA	-0.0805
ATGTTTCG	0.0809
AGAAGACA	0.0551
GCTCAAAC	-0.108
CCACTACA	-0.0176
AAGGGTCG	-0.0336
GTGTTCCA	0.0461
AGAGTAAA	0.134
AGATTTTA	0.272
GGGGGCTA	-0.248

Block 2
Target: Fragile X messenger ribonucleoprotein 1, C-terminal low-complexity region (Fmr1, Mus musculus, UniProt P35922)
Method: RNA Bind-n-Seq
Form: RNA
Matrix: in vitro
Concentration: 200 nM
Notes: whole 134-nt RNA, ends assumed
With: 150 mM LiCl
Baseline: input library
Reading: higher = stronger binding
Each molecule: 7-deaza-guanosine replaces G
All sequences stand within: GGGAGUUCUACAGUCCGACGAUC … UGGAAUUCUCGGGUGUCAAGG
Strand	log2 enrichment
UCAAGUCCUGUGCUACACAUCGUAUGUACCGAAUCGGGUUUGGUUUGGUUUGGGAAAGUAUUAUGUUACGCCGUUCGGAUCUGCACUUCC	-1.7
GCAGGAAGUAAAAACAAAUGAAAAUGCUUCGGAUAGUGGCAGGGGUGGGGGUUGCUAAGGAAAGGGUGGGAUGGGAGUGGGUAAAGAGUU	1.42
CACAGACAGCACGCACCCACACAGACACAGAGGGAAGGGGUUGGGAUGGGGACAGGGUGCACAGCAGGGCGGGGUAGGACCCCAGCCCCU	0.00066
UCCUGUGCUACACAUCGUAUGUACCGAAUCGGGGAAAGGGGUUUUUUUGGGGAAAGGGGAAAGUAUUAUGUUACGCCGUUCGGAUCUGCA	-0.566
AGUCCUGUGCUACACAUCGUAUGUACCGAAUCGGGGUGGGGAAAAAAAGGGGUGGGGAAAGUAUUAUGUUACGCCGUUCGGAUCUGCACU	0.0494
CCUCAAGUCCUGUGCUACACAUCGUAUGUACCGAAUCGGGCGGGGCGGCGGGAAAGUAUUAUGUUACGCCGUUCGGAUCUGCACUUCCAG	-0.464
AGUCCUGUGCUACACAUCGUAUGUACCGAAUCGGGUUUUUGGGAAAGGGUUUUUGGGAAAGUAUUAUGUUACGCCGUUCGGAUCUGCACU	-2.72
CACAGACAACACGCACCCACACAGACACAGAGGGAAGGGGUUGGGAUGGGGACAGGGUGCACAGCAGGGAAAGGUAGGACCCCAGCCCCU	0.626
ACCAUGCAGGUGGGCAUCUUUGGGAAGUGGGGCAAGGGGGGGAUAGGGAGGGGGGUAACACUUUGGGAACAGGUGGUGCCAGGUCGUUUC	1.39
CUCAAGUCCUGUGCUACACAUCGUAUGUACCGAAUCGGAAAGGAAAAAGGUGGAAAGUAUUAUGUUACGCCGUUCGGAUCUGCACUUCCA	-0.772
UAACUUUAGAGGAGGAUCUGAUGGAUAUGGCAGUGGACCUGGAUUUGGGGAUGGCUAUAAUGGGUAUGGAGGAGGACCUGGAGGUGGCAA	-0.0215

Block 3
Target: ABI1, truncated, D143A, DHFR fusion (Arabidopsis thaliana)
Method: DHFR PCA, deep sequencing
Matrix: yeast
Notes: methotrexate growth selection, single substitutions
With: (+)-ABA 58 µM
Baseline: wild-type fitted maximum
Reading: higher = stronger binding
Starting sequence: PYL1, truncated, DHFR fusion (Arabidopsis thaliana); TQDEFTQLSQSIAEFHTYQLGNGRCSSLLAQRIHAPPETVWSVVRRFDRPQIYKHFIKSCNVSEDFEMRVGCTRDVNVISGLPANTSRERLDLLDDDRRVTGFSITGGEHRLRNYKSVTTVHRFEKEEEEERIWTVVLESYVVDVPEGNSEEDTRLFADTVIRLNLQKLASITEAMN; partner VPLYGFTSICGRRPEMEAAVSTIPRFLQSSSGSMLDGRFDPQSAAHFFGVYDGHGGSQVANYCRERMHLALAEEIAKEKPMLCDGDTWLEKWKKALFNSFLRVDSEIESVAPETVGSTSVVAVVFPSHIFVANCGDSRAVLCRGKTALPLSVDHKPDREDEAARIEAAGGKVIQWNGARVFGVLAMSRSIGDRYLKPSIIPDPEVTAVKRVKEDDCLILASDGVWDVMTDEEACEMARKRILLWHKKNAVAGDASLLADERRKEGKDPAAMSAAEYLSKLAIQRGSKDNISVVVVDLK
Change	relative binding score
K58I	33.3%
E125D	92.3%
E127H	94.4%
A35M	29%
T120W	-11.8%
K116Y	27.2%
L82K	-8.61%
Q19D	95.8%
F56W	80.8%
A13Y	75.8%
D65H	85.3%
D95E	55.6%
D144V	33.1%
V62A	55.3%
D92L	29%
P50Q	6.31%
P37S	66.4%

Block 4
Target: CCNB2, cyclin fold, Cln2 fusion (human)
Method: yeast growth competition, sequencing
Matrix: yeast
Notes: weak parent motif
Baseline: not given
Reading: higher = stronger binding
Starting sequence: ANKRD17 docking peptide (human); PSVRRQLFVTVVK
Change	normalised enrichment score
S2A	1.01
F8L	0.471
P1A	0.224
R5K	0.654
K13A	0.377
R5A L7A	0.377
R5A	0.914
R4A	0.609
V9A	0.629
V3A	0.92

Block 5
Target: Interferon regulatory factor 7, full length, phosphomimetic (IRF7, Homo sapiens, UniProt Q92985, residues 1-503, S101K/S471D/S472D/S475D/S476D/S477D/S483D/S484D/S487D)
Chain of UniProt Q92985 (whole entry, unmodified, looked up): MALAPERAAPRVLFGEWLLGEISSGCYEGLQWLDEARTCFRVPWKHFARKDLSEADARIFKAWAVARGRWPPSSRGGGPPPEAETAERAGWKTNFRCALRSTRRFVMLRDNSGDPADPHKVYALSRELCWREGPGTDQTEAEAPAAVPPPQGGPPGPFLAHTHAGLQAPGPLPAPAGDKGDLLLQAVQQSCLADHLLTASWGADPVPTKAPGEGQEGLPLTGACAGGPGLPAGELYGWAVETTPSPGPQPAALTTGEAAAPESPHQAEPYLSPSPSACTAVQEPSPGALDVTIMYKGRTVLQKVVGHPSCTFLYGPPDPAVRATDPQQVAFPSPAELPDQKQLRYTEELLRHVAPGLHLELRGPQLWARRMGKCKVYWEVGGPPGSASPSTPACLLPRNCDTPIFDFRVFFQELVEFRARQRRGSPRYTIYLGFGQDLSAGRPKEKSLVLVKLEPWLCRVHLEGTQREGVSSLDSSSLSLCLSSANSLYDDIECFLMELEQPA
Method: protein-binding microarray
Form: double-stranded DNA, one strand shown
Matrix: in vitro
Concentration: 250 nM
Notes: 60-bp whole probe
With: salmon DNA 0.4 mg/ml
Baseline: random background probes
Reading: higher = stronger binding
All sequences stand within: GCCTAGCAC … GTCTTGATTCGCTTGACGCTGCTG
Strand	log fluorescence [z-score]
TATGGTATTTTTTTGTAATCGTGCTAG	0.383
TTATGACTGCTACTGCTTTAGTGCTAG	-0.671
TCAGGTTTCGGGACTGGGTTAGTGCTA	4.33
GACGGTATCCTGCTGCTGACGTGCTAG	-0.402
TCACTTCTGGTGCTCATACTGTGCTAG	0.295
TGAGGTATCGGTATCGGTTAGTGCTAG	2.06
TCATGTCTGGGATGTAATACTGTGCTA	-0.142
GACGATTCCCGTTTCGAGACGTGCTAG	4.62
GACTTTCTTTCAAATGAAGGAGTGCTA	1.51
TTAGGCCTCGGTCTCGGTTAGTGCTAG	2.08
AGGAAGACATCAAAGAGAGCGTGCTAG	-0.45
GACGGACTGGCACTGGGGACGTGCTAG	-0.811
GACAGTCTCCTTATCCTGACGTGCTAG	0.398
TTAGGTATCGGACTGCGTTAGTGCTAG	0.616
GACGAACTCGGGACTGGAGACGTGCTA	-0.289
GGCGATATCAGTCTCGAGACGTGCTAG	-0.332
TTAGGACTGGGTATCGGTTTGTGCTAG	2.98
TTAGATATCAGTATCGATCAGTGCTAG	0.15
TTAGATTTCAGACTGGATTAGTGCTAG	0.227
TTAGGTTTCGGACTCGGTTAGTGCTAG	5.14
GACAGTCTCCTTTTCCTGACGTGCTAG	1.7
ACTTCATTGCATATAGAAAAGTGCTAG	1.04
TTACGTTTCGGTATCGGTTAGTGCTAG	5.65
GCCATTGTGGATCTTGCAGAGTGCTAG	-0.555
TTTGGTGTCTTTTGTGGAAACGTGCTA	-0.317

For quick reference, copied from above (block 4):
Change	normalised enrichment score
P1A	0.224
F8L	0.471
K13A	0.377
R5A L7A	0.377
S2A	1.01
V9A	0.629
R5K	0.654
R5A	0.914
V3A	0.92
R4A	0.609
